Assay results gathered from unrelated publications.
Numbered parts are unrelated; each lists some results of a single study. Substitutions count along the parent as printed.

Study 1 — method: RNA Bind-n-Seq; form: RNA; sample: in vitro; tested at: 365 nM; reference: no-protein control; reading: higher = stronger binding
Target: RNA binding protein fox-1 homolog 2, RRM domain, GST-SBP tag (RBFOX2, Homo sapiens, UniProt O43251-10, residues 100-194)
Notes: natural RNA segment, single round, ends assumed
Constant ends, left off below: GGGAGUUCUACAGUCCGACGAUC … UGGAAUUCUCGGGUGCCAA
Residues (chain): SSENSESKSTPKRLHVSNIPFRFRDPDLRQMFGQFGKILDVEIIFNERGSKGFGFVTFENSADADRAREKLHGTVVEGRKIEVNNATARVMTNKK
| Sequence | RBNS enrichment (R) |
| --- | --- |
| AGCGCAUCAGCAAGCUUGAGAGGAACGUGGAAGAGCUUAAGCGUAAAGCUGCCCAGAACUCUGGGGAGGCAGAAUAUAUCGAAAAAGUAGUAUAUUCUGUAAAACAGAAU | 0.508 |
| CUGAUGCACCACAGGCCCUCCCUACUGGAAGUGGGAACUUCAAAUGGAAAUUGGAGCCAUCUUUUAUCCCAGAAGCCUUUGCUGCUGCCAGGGCAAGUGGGCUGGUGUGG | 0.347 |
| GGGGUUAAUCAACCCCGCGUGUUUCUGUUUUAUUGAAAAAGCAGACAUUUUUUUUUAAAUGGUCACAUUUCGUGCUUCUCGGAUUUCUGAGGAAAUAUUUUGUAUUGUAU | 0.591 |
| GUAAUCACUUCUGUUUUUUUCUUUUUCAUUACUUUGCUACCACCUCCAUCCCAUGACAUUAUACUGUGAAGUGUAAGAGGACGGGGUUUUUUUAAACUUGGUAGAAAUGU | 0.603 |
| UUGGGGGCGCCGGCUAGAAAAAGUAGGGUGCGGUGGCCAGGAGGGCCCCUGCCGCGCGGGGGGCUGGGUCUGGUUGAGUCGCUGCUUUCCCGAGGGCAGCGCAGGGAUCC | 0.412 |
| AGCAAAUGAAAAAGUGCAGUUAAUUCAAGAACAGGAAUCCCUGUGUCCUUGCUGGGAUUUCCUUUUGGGAACCUGACUUUCCGACUCCAGAUCCUGCUGUCUGGAUCAGU | 0.384 |
| CUUUGGAUUUGUCUCAGUGCCUUAGCAUCUGAAAACCUGUGCUUGUAUAUGUGUGUGUAUGUGUAGGGGCAGCCCCUAUCUCUGGCUCCUUUUCCACCCUUCUCCCCAGU | 2.59 |
| CUCCCUGAAAUGUGGCAUCAGCAUGAAAACAAGCAGCCUGUCUUUCCUCAUUAACUGGGAGUCCCACUUACCUACUGUCAGCUGAUCACAGCAGCAAUGGCUAAUUCAGU | 2.54 |
| AGUUAAUUUAUCAACAGCCUAAAACUGUUGCCAGGUCAUCUUACAGUUUAAAACAUGCCAUCUCAUCGGUAGUCCCUGCUCUUUUCCCUCUCCCAUCUGCCAGUCUCUCU | 0.528 |
| CACCCAAAAGUCAAAAGGUGCCUGUGAGGCAGGGGCGGAGUGAUACAACUUCAAGUGCAUGCUCUCUGCAGCCAGCCCAGCCCAGCUGGUGGGAAGCGUCUGUCCGUUUA | 3.06 |
| AUAUGCCCAAAACUCAGAUCUUUAGAAGUGAUCUUUCACUUGCUUAAUUGCAAAGUAGUUCAAAGCAAAGAAAAGCUUACAUUAAUCCCUAGAUUUUAGAACUGUAUGUA | 0.57 |
| CAGGACUGGGGCUUUCUCCCCAGAGGUGAGCCUCUGUGAGCAUCGAGAGGAUUUGCACAUGCCAAGCAGAGGGUGGCUCUCUUGGCAGUGAGAUUUGGGGGAAACAGACA | 0.766 |

Study 2 — target: CCNF, cyclin fold, Cln2 fusion (human); method: yeast growth competition, sequencing; sample: yeast; notes: weak parent motif; reference: not given; reading: higher = stronger binding
Starting sequence: PKN2 docking peptide (human); VSAVQKLDFSDTM; partner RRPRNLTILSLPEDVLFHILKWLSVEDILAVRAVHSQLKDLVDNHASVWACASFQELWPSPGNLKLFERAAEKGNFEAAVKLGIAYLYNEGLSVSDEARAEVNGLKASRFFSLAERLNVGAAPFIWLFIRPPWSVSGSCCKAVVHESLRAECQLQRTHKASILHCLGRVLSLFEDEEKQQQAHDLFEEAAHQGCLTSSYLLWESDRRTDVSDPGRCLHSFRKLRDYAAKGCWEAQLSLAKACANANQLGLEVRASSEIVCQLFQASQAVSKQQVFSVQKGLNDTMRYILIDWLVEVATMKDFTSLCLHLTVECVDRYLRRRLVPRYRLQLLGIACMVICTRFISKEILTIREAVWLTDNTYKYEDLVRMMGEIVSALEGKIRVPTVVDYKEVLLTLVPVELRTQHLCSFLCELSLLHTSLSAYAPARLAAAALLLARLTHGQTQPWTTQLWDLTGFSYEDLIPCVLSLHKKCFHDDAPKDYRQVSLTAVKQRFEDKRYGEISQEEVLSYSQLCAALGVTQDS
| Variant | normalised enrichment score |
| --- | --- |
| VSAVQKLDFGDTM [S10G] | 1.59 |
| VSAVQKLDFSDTF [M13F] | 1.4 |
| VSAVQKLDFSKTM [D11K] | 0.702 |
| VSALQKLDFSDTM [V4L] | -0.212 |
| VMAVQKLDFSDTM [S2M] | 0.17 |
| VSAVQKMDFSDTM [L7M] | -0.489 |
| VSPVQKLDFSDTM [A3P] | 0.259 |
| VSAQQKLDFSDTM [V4Q] | 1.09 |
| VSAVQKLTFSDTM [D8T] | 0.481 |
| VSAVQCLDFSDTM [K6C] | 0.42 |
| VSAAQKLDFSDTM [V4A] | -0.487 |
| VKAVQKLDFSDTM [S2K] | 0.514 |
| VSAVQMLDFSDTM [K6M] | -0.272 |
| VSAVQDLDFSDTM [K6D] | -0.426 |
| VSAVQHLDFSDTM [K6H] | 0.302 |

Study 3 — method: protein binding microarray; form: double-stranded DNA, one strand shown; sample: in vitro; tested at: not given; reference: not given; reading: higher = stronger binding
Target: Histone acetyltransferase KAT6A, winged helix 1, GST fusion (KAT6A, Homo sapiens, UniProt Q92794, residues 1-85)
Notes: 8-mer, flanks averaged, mean of 2 arrays, mostly near background
Construct (chain): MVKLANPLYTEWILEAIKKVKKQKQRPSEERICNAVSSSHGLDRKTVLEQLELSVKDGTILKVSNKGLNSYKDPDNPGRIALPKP
| Sequence | E-score |
| --- | --- |
| TATTATAA | -0.0582 |
| AGTCAGAA | -0.0915 |
| AAGTCATC | -0.212 |
| GCGACAGC | 0.208 |
| TAATGGGA | -0.192 |
| CATCAGTC | -0.152 |
| ACGTGGCC | -0.085 |
| AGTACCCG | 0.121 |
| AGAGTCAC | -0.177 |
| ATAGATGC | 0.0228 |
| AGGCGTGG | 0.041 |
| TAAGCCGA | 0.134 |
| CAGATTAC | -0.135 |
| AGTCCAAA | -0.208 |
| ATAACCTA | -0.126 |

Study 4 — method: Sort-seq; refers to: YFP reporter; sample: E. coli; notes: PhoQ-PhoP variant library; with: 10 µM Mg2+; reference: high Mg2+ state; reading: higher = stronger signaling
Substance: PhoQ, residues 284 288 289 292 302 303 SVHLDV
| target | fold induction |
| --- | --- |
| PhoP, residues 12 14 15 18 19 VGHWL (Escherichia coli, UniProt P23836) | 2.25 |
| PhoP, residues 12 14 15 18 19 TPWTL (Escherichia coli, UniProt P23836) | 1.66 |
| PhoP, residues 12 14 15 18 19 LHHYF (Escherichia coli, UniProt P23836) | 4.73 |
